Results pooled from the literature.
Every numbered part comes from another study and shows a few of its results, in no order.

Block 1 — method: protein binding microarray; molecule type: double-stranded DNA, one strand shown; sample: in vitro; tested at: not given; relative to: not given; direction: higher = stronger binding
Target: Histone acetyltransferase KAT6A, winged helix 2, GST fusion (KAT6A, Homo sapiens, UniProt Q92794, residues 85-181)
Notes: 8-mer, flanks averaged, mean of 2 arrays, mostly near background
Residues (chain): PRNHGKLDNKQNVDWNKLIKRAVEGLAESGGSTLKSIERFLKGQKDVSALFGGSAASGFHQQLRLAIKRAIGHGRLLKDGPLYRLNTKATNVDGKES
Oligonucleotide	E-score
ATTGTTGC	0.0206
GAATTTAA	0.0388
CGATTAAG	-0.0406
AAGAGGTC	0.0398
GCCTAATA	-0.024

Block 2 — method: competition protein-binding microarray; molecule type: double-stranded DNA, one strand shown; sample: in vitro; tested at: 2 µM; with: Pho4 competitor, 0.05 µM; direction: higher = stronger binding; all sequences stand within: … GTCTTGATTCGCTTGACGCTGCTG
Target: Centromere-binding protein 1, full length, His-tagged (CBF1, Saccharomyces cerevisiae, UniProt P17106, residues 1-351)
UniProt P17106, sequence (whole entry, looked up): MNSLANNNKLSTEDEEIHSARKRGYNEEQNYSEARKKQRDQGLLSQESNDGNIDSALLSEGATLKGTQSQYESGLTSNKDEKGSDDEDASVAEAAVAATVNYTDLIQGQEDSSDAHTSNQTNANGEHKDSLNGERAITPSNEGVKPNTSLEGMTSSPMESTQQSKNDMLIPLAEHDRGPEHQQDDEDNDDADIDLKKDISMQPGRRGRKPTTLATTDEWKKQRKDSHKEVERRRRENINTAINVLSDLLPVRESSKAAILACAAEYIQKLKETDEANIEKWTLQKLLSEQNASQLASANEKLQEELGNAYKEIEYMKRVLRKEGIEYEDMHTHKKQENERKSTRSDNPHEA
Notes: whole 60-bp probe, lowest competitor level
Oligonucleotide	fluorescence intensity
TTAGTCTGTAACCAACACGTGCAAAGGGTAAATAGA	1900 a.u.
AAATTACTAAGTTGATTGGTGGGTGACGCCGTATGA	61.4 a.u.
CTAACGAAGGTTTGGCTTGTGGGTGACAAGCCAAGT	79 a.u.
TGCGTTTTGGTCTACGATGTGACAGTTGCCAGTTCC	80.1 a.u.
TGCGCAACAACTTGTCACAATACTTTATGTCTAGAA	86.1 a.u.

Block 3 — method: universal PBM; molecule type: double-stranded DNA, one strand shown; sample: in vitro; tested at: 600 nM; direction: higher = stronger binding
Target: Sal-like protein 4, full length isoform A (SALL4, Homo sapiens, UniProt Q9UJQ4, residues 1-1053)
UniProt Q9UJQ4, sequence (whole entry, looked up): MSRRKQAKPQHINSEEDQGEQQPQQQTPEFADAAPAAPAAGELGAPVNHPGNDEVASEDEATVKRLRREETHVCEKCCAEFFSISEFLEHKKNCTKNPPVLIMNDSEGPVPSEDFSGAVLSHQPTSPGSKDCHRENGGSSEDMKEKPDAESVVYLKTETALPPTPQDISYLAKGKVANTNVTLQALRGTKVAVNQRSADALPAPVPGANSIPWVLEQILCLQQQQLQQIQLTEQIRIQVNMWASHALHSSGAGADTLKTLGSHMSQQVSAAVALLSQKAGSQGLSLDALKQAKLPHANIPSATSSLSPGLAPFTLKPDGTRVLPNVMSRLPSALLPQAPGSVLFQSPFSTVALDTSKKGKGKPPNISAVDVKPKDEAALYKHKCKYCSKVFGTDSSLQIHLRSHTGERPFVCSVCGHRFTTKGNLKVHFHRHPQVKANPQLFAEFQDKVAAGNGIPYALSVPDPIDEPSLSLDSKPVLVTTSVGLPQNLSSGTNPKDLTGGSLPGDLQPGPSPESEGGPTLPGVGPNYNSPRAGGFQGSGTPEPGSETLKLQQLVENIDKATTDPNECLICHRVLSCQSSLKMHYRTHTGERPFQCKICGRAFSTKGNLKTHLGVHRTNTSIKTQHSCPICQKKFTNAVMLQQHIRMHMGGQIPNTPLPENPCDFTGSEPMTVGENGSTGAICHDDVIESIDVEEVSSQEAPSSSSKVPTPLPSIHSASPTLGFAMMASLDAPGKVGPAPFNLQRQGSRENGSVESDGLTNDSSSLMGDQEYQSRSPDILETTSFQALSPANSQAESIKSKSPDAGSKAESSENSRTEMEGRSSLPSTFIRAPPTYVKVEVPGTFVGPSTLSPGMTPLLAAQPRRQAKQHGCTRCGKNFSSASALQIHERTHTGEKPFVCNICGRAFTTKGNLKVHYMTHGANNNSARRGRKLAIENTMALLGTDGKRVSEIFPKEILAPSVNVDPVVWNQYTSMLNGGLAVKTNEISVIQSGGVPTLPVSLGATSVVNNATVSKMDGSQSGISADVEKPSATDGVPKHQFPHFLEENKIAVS
Notes: 8-mer, flanks averaged, mean of replicates
Oligonucleotide	E-score
AACAAGAA	0.286
CGCATACA	0.112
AGGGTAGG	-0.243

Other studies, line by line
Molecule	target	assay	system	setting	scale	measurement	result
PhoQ, residues 284 288 289 292 302 303 SLGVVW	PhoP, residues 12 14 15 18 19 GQALL (Escherichia coli, UniProt P23836)	Sort-seq, refers to: YFP reporter	E. coli	PhoQ-PhoP variant library, with: 10 µM Mg2+	relative to: high Mg2+ state, higher = stronger signaling	fold induction	15.1

Repeated from above (block 1):
Oligonucleotide	E-score
CGATTAAG	-0.0406
AAGAGGTC	0.0398
